Measured values gathered from unrelated publications.
A part holds a random share of what one study measured. Substitutions count along the parent as printed.

Study 1
Target: CRIPT, C-terminal peptide
Technique: DHFR complementation, deep sequencing
Medium: yeast
Setting: single substitutions, model-inferred values
Baseline: wild type
Direction: higher = weaker binding
Endpoint: binding free energy change
Starting sequence: ERBIN, PDZ domain 1 (human); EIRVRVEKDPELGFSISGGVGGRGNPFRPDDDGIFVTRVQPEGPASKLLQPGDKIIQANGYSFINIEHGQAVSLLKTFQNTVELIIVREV; partner TKNYKQTSV
Q40R: -0.000294 kcal/mol
G43L: 0.943 kcal/mol
Q70Y: 0.109 kcal/mol
A71F: 0.915 kcal/mol
A45W: 1.3 kcal/mol
S17K: 1.7 kcal/mol
D30K: 0.352 kcal/mol
A58Q: 0.84 kcal/mol
N59Q: -0.142 kcal/mol
T37C: 0.222 kcal/mol

Study 2
Target: CREB5, bZIP domain (human)
Technique: DHFR protein complementation
Medium: yeast
Setting: single substitutions, most at no-binding floor
Baseline: wild-type JUN-FOS pair
Direction: higher = stronger binding
Endpoint: binding fitness
Starting sequence: JUN, bZIP domain (human); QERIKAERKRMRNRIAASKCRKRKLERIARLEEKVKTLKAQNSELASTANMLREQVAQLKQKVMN; partner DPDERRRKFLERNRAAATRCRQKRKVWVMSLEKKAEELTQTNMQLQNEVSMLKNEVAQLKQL
N42K: -0.758 natural log
E44W: -0.854 natural log
K36A: -0.112 natural log
L52K: -1.36 natural log
S43K: -0.117 natural log
L45I: -1.1 natural log
L59Q: -1.16 natural log
R30L: -0.183 natural log
L31P: -1.41 natural log
Q55E: -0.25 natural log
E33T: -0.532 natural log

Study 3
Target: RNA binding protein fox-1 homolog 2, RRM domain, GST-SBP tag (RBFOX2, Homo sapiens, UniProt O43251-10, residues 100-194)
Technique: RNA Bind-n-Seq
Form: RNA
Medium: in vitro
Tested at: 365 nM
Setting: natural RNA segment, single round, ends assumed
Baseline: no-protein control
Direction: higher = stronger binding
Endpoint: RBNS enrichment (R)
All sequences stand within: GGGAGUUCUACAGUCCGACGAUC … UGGAAUUCUCGGGUGCCAA
Target sequence (chain): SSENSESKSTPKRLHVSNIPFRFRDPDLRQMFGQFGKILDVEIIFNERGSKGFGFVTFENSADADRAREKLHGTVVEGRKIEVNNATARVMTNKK
CCUUUUUAAUUAGAAAUUAAAACAGUUAAUUUAAUUAAAGAGUAGGGUUUUUUUUCAGUAUUCUUGGUUAAUAUUUAAUUUCAACUAUUUAUGAGAUGUAUCUUUUGCUC: 0.719
GCUUCUACUGCUAACUGCUGUAUUCUGUAUAUACUGUGCCACCCUGUGUGGAGUCUGUGAGUGUGCUCUUGAGUAGCGUGGGCUAGCCAAUCUGCCAUUCAUGGUGUUAU: 0.323
GAGAAAAUCCAACCCAUUGCAAGAAGCUCUUUGUGGGUGCCUGGUUACAUCGGAGCAGGGGAGCCUCAAAUCCACCUUUGGAGCCGCCCCUGUGUGCAUUAGGAACCCUU: 0.584
GCCGGGCCCCCUGUGCCUCUAGCAUAUGUGUAUUGACUCUCAUAGUUACCCUUUUCGUUUACUGUGUUCUGUGAAAACUUGUAAUUGGUUGAGAAUCACUGUGGGCGUCC: 0.321
AUCCUGUGGGCAGACACCUUACUCUGGAGCCAUUCCACCUGCCUGUCACCUGGGUCUGAGAAGCCUUCACUUCCACUUGCCAGAGGGAAGAACUGGCCACCCAUCUGUCA: 0.638
UCUUUAAAGUGUAUAUUAGCCACUUAGCAAUCUCUAUAUUCUUUCAAGUAACCAAGCUGUUGACUUUCUUACUACUUGCAGUAGCCUGUCCCCAACUUUUCCAUCCAGUG: 0.219
GGGCAGCAAAACAAGUGACAUGAAGGGAGGGUCCCUGUGUGUGUGUGUGCUGAUGUUUCCUGGGUGCCCUGGCUCCUUGCAGCAGGGCUGGGCCUGCGAGACCCAAGGCU: 0.68
CGAUUGUUUCGGAUCAUAUUGAUCUCUUUCCUUUUUCCUUUUGUCCUUUCACUGUAUGACUUGAAUCAGUUUUGAUUCUAUUUGUAAGUGUUUCUUGUCGUGAGGCACCU: 1.08
UUGUUUUUCUACCUCCCGCACUUAUUUCUUGUAGAGCUUGUGGUUUCAUGAGCUGAUAAUGAAUUCUCCAAGAUGCCUAUUAGAUUUUCUUUAUAGAUGUGGUGAGUCUU: 0.557
UGAGUCACUCAUAAUUAAUUGCCAAAAAAGCAUUUUAUACAUUGAGUUGGGGGGUAGUGGAUCUUAGUGUGGUGUUGCAUGGAGGGGCGAGAUUUUAUAUUUAUAAUCAA: 8.51
UGCUGGGUUUUCUGUUGUUUGAGUGUGUUAGAGAAAUUUGAAUGUUUUUGUCAGUUACGAGUCAGCCGUAAUUAGAUUAGUUUAAGGACAGGUCAGGAUUAGAGAAGAGU: 6.26
UGUUUUAGCCUUCAGGUGUUUGGUUUUGUAUGUGCUCCCUCAUUUUAAACAUUAAACCAAACUUCUGGUUUCCUUUAGACAAUCCAAGAGAAAUAAAAGGCCCUACUUUC: 0.852

Study 4
Target: CCNA1, cyclin fold, Cln2 fusion (human)
Technique: yeast growth competition, sequencing
Medium: yeast
Setting: weak parent motif
Baseline: not given
Direction: higher = stronger binding
Endpoint: normalised enrichment score
Starting sequence: GMNC docking peptide (human); KNAKRNLSSEFAN
F11V: 0.185
A12Y: 0.172
K4H: -0.411
A12S: 0.256
S9Y: 0.812
S9N: 0.645
E10R: 0.214
N2V: 0.288
A3Y: 0.0939
N2D: 0.454
K4E: 0.0131
E10G: 0.0914
L7Y: -0.0734
N6M: 0.253
N2I: 0.519

Study 5
Target: Interferon regulatory factor 5, full length, phosphomimetic (IRF5, Homo sapiens, UniProt Q13568-2, residues 1-514, S451D/S453D/S456D/S462D)
Technique: protein-binding microarray
Form: double-stranded DNA, one strand shown
Medium: in vitro
Tested at: 940 nM top
Setting: 60-bp whole probe
With: salmon DNA 0.4 mg/ml
Baseline: random background probes
Direction: higher = stronger binding
Endpoint: fitted relative affinity
All sequences stand within: GCCTAGCAC … GTCTTGATTCGCTTGACGCTGCTG
GAGGATATCAGACTGGAGACGTGCTAG: -0.726 z-score
TTAGGCCTGGACTATCGGTTAGTGCTA: -0.322 z-score
GAAGGTTTCGGGTATCGGGACGTGCTA: 8.55 z-score
GACGAACTGAGTATCGGGACGTGCTAG: 1.03 z-score
CTAGGACTGGGTATCGGTTAGTGCTAG: 3.54 z-score
GACGATTTCGGGTATCGCGACGTGCTA: 0.633 z-score
TCAACTTTCACTTCTCCACTGTGCTAG: 3.61 z-score
GACGGTATCGACTTTTGGGACGTGCTA: 3.52 z-score
TTAGGTATCGGGACTGGGATAGTGCTA: 3.78 z-score
TCAATTTTGTTCATCATACTGTGCTAG: 0.238 z-score
TTAGGTTTCGACTTTCGGTAAGTGCTA: 9.4 z-score
TTAGGTATCGGGTTTGGGTTAGTGCTA: 6.29 z-score
GACGGTTTCGGTATCGGGAAGTGCTAG: 13.5 z-score
GCATCTCGGAGATCTCGAAGCGTGCTA: 0.0977 z-score
TTGGGACTGGGTTTCGGTTAGTGCTAG: 6.89 z-score
CTTGGCTTCTCCCACAGGTGGTGCTAG: -0.15 z-score
TCAGCTATACCACTCTTACTGTGCTAG: 0.272 z-score
GACAATATCGGGTATCGAGACGTGCTA: 0.837 z-score
CTAGTTTTACTTTCTATGTCGTGCTAG: 2.56 z-score
GACGGACTGGACTATCGGGAAGTGCTA: -0.128 z-score
GACGGTTTCCATTTCCTGACGTGCTAG: 2.09 z-score
TTAGGTATCGGGACTGCGTTAGTGCTA: 4.29 z-score
GACGGTCTCGGTCTGGGGACGTGCTAG: 3.33 z-score
GACAGTCTCCTTTTCCTGACGTGCTAG: 1.67 z-score
TTAGAACTCGGGTATCGATTAGTGCTA: 2.65 z-score

Further values, each from its own experiment
PhoQ, residues 284 288 289 292 302 303 SNSSNI
fold induction (PhoP, residues 12 14 15 18 19 AQCLL (Escherichia coli, UniProt P23836); Sort-seq, measured: YFP reporter; E. coli; PhoQ-PhoP variant library, with: 10 µM Mg2+; baseline: high Mg2+ state, higher = stronger signaling): 3.51

Excerpt of the above (study 3):
UCUUUAAAGUGUAUAUUAGCCACUUAGCAAUCUCUAUAUUCUUUCAAGUAACCAAGCUGUUGACUUUCUUACUACUUGCAGUAGCCUGUCCCCAACUUUUCCAUCCAGUG: 0.219
GGGCAGCAAAACAAGUGACAUGAAGGGAGGGUCCCUGUGUGUGUGUGUGCUGAUGUUUCCUGGGUGCCCUGGCUCCUUGCAGCAGGGCUGGGCCUGCGAGACCCAAGGCU: 0.68
CGAUUGUUUCGGAUCAUAUUGAUCUCUUUCCUUUUUCCUUUUGUCCUUUCACUGUAUGACUUGAAUCAGUUUUGAUUCUAUUUGUAAGUGUUUCUUGUCGUGAGGCACCU: 1.08
UUGUUUUUCUACCUCCCGCACUUAUUUCUUGUAGAGCUUGUGGUUUCAUGAGCUGAUAAUGAAUUCUCCAAGAUGCCUAUUAGAUUUUCUUUAUAGAUGUGGUGAGUCUU: 0.557
UGAGUCACUCAUAAUUAAUUGCCAAAAAAGCAUUUUAUACAUUGAGUUGGGGGGUAGUGGAUCUUAGUGUGGUGUUGCAUGGAGGGGCGAGAUUUUAUAUUUAUAAUCAA: 8.51
UGCUGGGUUUUCUGUUGUUUGAGUGUGUUAGAGAAAUUUGAAUGUUUUUGUCAGUUACGAGUCAGCCGUAAUUAGAUUAGUUUAAGGACAGGUCAGGAUUAGAGAAGAGU: 6.26
UGUUUUAGCCUUCAGGUGUUUGGUUUUGUAUGUGCUCCCUCAUUUUAAACAUUAAACCAAACUUCUGGUUUCCUUUAGACAAUCCAAGAGAAAUAAAAGGCCCUACUUUC: 0.852
